Published values pooled from the literature.
Compare with care: the assays were run in different laboratories. Several values in a cell are separate wells, animals, samples, runs or records.
LYN: Tyrosine-protein kinase Lyn (LYN, Homo sapiens, UniProt P07948)
UniProt P07948, sequence (whole entry, looked up): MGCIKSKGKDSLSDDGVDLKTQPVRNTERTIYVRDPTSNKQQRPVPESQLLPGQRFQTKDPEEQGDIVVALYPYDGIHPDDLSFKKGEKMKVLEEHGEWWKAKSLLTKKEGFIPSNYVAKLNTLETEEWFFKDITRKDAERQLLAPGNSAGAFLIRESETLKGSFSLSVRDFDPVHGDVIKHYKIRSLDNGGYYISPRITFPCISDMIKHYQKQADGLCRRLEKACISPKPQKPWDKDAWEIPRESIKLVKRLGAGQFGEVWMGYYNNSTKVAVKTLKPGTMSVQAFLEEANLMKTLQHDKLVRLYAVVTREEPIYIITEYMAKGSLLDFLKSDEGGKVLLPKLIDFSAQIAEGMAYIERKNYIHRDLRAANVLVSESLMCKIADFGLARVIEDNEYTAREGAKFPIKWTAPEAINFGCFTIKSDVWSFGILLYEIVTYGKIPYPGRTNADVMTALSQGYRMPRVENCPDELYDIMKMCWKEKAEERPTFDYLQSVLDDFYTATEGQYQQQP
LYN isoform A: Tyrosine-protein kinase Lyn, isoform A (LYN, Homo sapiens, UniProt P07948)
LYN isoform B: Tyrosine-protein kinase Lyn, isoform B (LYN, Homo sapiens, UniProt P07948)

For `CNC(=O)C[C@H](Cc1ccc(C#N)cc1)NC(=O)c1cc(-c2ccc(CN[C@H](C)c3ccc(C)cc3)o2)ccc1Cl`, “activity vs control” read 100% (LYN; enzyme activity, inhibitor; 1 µM).
`NC(=O)C[C@H]1CCc2sc3ncnc(O[C@H]4CC[C@H](N5CCOCC5)CC4)c3c21` has an inhibition of 22% (LYN; enzyme activity, inhibitor; 10 µM).
With `Cc1[nH]nc2c1N=C(c1ccccc1Cl)c1cnc(N3CCOCC3)cc1N2` the inhibition was 11.8% (LYN isoform A; kinase activity, inhibitor; 0.5 µM).
For `O=C(Cc1ccc(OCc2ccccc2)cc1)NC1(C(=O)O)CCN(C(=O)c2ccc(-c3cccc(Cl)c3)cc2)CC1`, “activity vs control” read 121% (LYN; enzyme activity, inhibitor; 10 µM).
`Nc1ncc(-c2cc(-c3cnn(CC(F)(F)F)c3)ncc2F)nc1C(=O)NC1CNCC(F)C1` (stereo not shown) gave a remaining activity of 90.6% (LYN; enzyme activity; 1 µM; relative to: DMSO control).
With `Cc1cccc(O[C@H]2CCC[C@@H](C(C)CNCc3ccncc3)C2)c1` (relative stereo) the inhibition was -11% (LYN isoform A; kinome profiling; 10 µM).
`CCN1CCN(Cc2ccc(NC(=O)c3ccc(C)c(NC(=O)c4cncc(-c5cccs5)c4)c3)cc2C(F)(F)F)CC1` has a remaining binding of 0.65% (LYN; binding, competition with immobilised ligand; 1 µM).
`CCn1cc(C(=O)O)c(=O)c2c(N)c(F)c(NC3CCCCC3)cc21` gave an inhibition of -0.8% (LYN isoform B; kinase activity; 0.1 µM, added: ATP at Km).
`C=CC(=O)Nc1cccc(-c2cnc3[nH]cc(C(=O)NC(C)(C)C)c3n2)c1` gave an inhibition of 8% and 11% (LYN isoform B; kinase activity, inhibitor, kinase panel; 0.1 µM).
With `NC(=O)[C@@H](O)C[C@H]1CCc2sc3ncnc(O[C@H]4CC[C@H](N5CCOCC5)CC4)c3c21` the inhibition was 44% (LYN isoform B; radioisotope kinase; 10 µM).
For `C[C@H]1CN(C(=O)c2cn(-c3ccnc(N)n3)c3cc(C#CC4(O)CCCCC4)ccc23)CCN1`, the inhibition was 2% (LYN; kinase activity, Z'-LYTE; 1 µM, added: ATP at apparent Km).
With `CN1CCN(Cc2ccc(-c3ccc(CO[C@H]4CCC[C@@H]4NC(=O)c4cc(-c5cnn(C)c5)cnc4N)cc3)cc2)CC1` the inhibition was 7% (LYN; SelectScreen kinase profiling; 0.1 µM).
For `CC(C)=CC1OC(C)(C)C2C=C3C(=O)C(Cl)=CC(O)C3C3C(O)C4OC4C(=O)C132` (stereo not shown), the remaining binding was 100% (LYN; cell-free assay, competition with immobilised ligand; 10 µM).
